Results collected from several papers.
Numbered parts are unrelated; each lists some results of a single study. Values joined by “and” are separate records of one study, mostly repeats; a detail may differ.
Sequence of UniProt P49759 (whole entry, looked up): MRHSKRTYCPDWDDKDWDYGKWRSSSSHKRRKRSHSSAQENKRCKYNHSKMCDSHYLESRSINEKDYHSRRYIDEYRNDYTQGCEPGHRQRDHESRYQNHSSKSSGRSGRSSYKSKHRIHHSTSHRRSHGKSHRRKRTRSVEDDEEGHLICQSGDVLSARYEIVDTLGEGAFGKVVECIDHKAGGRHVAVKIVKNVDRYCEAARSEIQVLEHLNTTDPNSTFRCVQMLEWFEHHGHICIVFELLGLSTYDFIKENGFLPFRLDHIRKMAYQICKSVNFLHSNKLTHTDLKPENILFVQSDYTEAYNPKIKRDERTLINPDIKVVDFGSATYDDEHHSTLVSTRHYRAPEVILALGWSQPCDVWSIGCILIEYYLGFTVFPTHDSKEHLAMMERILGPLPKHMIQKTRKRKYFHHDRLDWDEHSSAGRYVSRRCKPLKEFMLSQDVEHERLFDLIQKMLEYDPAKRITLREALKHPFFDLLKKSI
Sequence of UniProt Q9H2X6 (whole entry, looked up): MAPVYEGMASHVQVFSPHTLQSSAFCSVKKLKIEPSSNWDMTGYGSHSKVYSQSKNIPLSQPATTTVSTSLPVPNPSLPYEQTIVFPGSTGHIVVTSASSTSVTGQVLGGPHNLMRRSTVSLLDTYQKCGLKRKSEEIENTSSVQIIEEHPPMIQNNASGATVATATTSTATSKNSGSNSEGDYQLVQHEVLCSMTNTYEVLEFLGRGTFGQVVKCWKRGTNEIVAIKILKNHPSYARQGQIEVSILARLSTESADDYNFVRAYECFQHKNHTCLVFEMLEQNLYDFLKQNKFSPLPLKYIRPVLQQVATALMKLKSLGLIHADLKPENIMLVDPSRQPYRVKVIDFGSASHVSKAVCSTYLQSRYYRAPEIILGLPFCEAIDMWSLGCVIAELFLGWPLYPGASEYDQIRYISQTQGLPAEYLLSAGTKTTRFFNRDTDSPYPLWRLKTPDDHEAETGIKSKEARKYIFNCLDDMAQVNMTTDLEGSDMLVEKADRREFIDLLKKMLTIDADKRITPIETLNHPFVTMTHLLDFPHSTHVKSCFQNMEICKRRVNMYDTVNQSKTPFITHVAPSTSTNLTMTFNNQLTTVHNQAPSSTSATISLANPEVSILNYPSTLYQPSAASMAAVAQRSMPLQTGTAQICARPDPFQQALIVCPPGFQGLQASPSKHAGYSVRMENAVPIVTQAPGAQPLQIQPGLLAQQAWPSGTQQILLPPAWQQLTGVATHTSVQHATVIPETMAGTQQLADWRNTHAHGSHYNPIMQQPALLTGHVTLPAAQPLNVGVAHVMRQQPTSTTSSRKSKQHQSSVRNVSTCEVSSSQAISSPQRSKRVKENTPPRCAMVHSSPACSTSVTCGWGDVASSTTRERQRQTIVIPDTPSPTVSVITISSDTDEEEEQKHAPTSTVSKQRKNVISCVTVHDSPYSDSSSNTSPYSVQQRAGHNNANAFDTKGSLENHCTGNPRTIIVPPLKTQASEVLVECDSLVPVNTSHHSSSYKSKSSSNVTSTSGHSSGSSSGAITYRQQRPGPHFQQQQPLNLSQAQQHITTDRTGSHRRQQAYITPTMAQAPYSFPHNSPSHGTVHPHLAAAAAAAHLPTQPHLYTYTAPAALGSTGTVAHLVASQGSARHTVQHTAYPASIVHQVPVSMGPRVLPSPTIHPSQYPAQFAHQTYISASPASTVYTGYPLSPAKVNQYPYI
Sequence of UniProt Q13546 (whole entry, looked up): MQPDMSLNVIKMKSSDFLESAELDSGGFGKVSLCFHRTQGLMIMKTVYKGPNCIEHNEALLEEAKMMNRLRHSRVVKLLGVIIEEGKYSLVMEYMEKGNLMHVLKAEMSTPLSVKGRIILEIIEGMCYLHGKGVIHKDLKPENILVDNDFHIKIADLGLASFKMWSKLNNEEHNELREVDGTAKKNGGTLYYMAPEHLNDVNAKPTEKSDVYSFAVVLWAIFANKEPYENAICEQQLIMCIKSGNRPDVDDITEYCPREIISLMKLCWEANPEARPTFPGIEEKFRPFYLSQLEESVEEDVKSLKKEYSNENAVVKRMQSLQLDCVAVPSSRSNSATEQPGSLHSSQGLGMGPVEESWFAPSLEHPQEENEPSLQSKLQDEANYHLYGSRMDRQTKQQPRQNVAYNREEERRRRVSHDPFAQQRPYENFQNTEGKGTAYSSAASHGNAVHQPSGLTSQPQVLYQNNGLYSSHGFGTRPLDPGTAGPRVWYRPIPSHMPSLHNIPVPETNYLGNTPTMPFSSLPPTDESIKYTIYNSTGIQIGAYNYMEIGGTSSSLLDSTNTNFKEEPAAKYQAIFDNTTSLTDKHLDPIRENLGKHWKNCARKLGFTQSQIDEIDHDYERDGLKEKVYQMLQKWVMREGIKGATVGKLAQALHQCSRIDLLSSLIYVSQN
Sequence of UniProt Q9Y4K4 (whole entry, looked up): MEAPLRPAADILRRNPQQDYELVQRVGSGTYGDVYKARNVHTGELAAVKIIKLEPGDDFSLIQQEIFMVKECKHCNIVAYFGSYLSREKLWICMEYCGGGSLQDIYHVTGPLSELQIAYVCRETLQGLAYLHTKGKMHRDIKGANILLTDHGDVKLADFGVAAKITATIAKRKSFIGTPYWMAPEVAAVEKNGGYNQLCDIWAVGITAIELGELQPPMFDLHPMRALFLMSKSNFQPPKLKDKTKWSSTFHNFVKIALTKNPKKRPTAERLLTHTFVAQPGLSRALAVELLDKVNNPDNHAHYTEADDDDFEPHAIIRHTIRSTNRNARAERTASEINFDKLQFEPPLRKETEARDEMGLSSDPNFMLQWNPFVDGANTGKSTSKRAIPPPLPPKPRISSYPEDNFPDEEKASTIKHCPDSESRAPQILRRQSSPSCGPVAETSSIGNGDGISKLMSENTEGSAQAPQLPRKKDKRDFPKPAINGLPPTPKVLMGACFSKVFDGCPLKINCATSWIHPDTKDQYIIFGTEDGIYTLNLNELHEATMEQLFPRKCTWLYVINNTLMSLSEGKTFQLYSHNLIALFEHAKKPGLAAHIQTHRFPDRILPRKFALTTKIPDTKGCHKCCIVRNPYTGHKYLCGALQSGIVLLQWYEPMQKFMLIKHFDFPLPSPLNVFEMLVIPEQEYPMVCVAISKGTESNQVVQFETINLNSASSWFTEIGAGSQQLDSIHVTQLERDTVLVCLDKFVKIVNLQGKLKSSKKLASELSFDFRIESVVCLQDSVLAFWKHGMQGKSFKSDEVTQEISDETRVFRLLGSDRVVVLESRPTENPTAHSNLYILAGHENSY
Sequence of UniProt P54756 (whole entry, looked up): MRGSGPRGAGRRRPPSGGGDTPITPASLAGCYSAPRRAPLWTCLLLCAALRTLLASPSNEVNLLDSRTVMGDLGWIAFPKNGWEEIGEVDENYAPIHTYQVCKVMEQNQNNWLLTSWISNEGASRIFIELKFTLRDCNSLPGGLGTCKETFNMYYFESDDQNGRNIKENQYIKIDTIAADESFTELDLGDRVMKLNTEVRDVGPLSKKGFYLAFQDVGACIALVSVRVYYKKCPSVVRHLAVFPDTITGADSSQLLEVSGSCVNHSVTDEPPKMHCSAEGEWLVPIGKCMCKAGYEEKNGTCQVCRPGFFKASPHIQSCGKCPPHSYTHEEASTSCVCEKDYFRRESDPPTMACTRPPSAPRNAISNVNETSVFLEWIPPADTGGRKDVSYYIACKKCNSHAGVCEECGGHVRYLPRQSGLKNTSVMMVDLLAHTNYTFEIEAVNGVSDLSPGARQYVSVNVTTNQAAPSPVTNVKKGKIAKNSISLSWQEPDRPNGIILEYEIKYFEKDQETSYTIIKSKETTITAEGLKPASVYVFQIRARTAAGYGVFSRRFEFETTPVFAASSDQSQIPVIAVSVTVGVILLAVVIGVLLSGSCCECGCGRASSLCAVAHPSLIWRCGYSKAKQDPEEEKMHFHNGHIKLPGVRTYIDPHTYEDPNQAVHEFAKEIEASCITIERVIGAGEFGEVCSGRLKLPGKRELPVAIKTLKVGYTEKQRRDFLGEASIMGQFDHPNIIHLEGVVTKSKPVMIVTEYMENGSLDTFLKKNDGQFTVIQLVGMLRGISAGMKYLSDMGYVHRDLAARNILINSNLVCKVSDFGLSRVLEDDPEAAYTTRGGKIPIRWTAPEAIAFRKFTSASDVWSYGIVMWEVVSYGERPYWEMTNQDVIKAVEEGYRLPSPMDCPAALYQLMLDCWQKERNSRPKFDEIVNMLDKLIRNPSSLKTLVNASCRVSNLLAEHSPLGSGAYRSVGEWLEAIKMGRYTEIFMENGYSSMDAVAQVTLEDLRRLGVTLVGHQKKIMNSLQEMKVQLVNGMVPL
Sequence of UniProt P78362 (whole entry, looked up): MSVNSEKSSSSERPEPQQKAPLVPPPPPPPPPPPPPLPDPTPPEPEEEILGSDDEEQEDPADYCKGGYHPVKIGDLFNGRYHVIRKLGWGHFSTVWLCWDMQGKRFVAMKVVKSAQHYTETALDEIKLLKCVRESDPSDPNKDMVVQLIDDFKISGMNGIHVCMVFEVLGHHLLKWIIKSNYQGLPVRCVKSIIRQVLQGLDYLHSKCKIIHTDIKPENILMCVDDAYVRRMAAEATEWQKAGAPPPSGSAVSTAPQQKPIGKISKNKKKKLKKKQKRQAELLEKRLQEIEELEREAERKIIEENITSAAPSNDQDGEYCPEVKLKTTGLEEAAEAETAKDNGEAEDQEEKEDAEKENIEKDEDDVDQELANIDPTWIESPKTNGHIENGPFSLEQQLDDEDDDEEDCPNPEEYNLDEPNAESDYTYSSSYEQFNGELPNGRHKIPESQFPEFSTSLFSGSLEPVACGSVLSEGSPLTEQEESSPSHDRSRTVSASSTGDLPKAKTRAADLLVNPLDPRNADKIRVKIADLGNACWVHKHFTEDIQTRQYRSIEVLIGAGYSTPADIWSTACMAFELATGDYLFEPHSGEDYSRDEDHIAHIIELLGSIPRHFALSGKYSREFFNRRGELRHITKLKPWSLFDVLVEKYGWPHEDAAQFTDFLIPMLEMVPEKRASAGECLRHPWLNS

Series 1
Structure (SMILES): CCOc1ccc(Nc2c3c(nc4ccccc24)CCC3)cc1
The cytotoxicity was 84% and 91% (PMA-differentiated THP-1 macrophages; 40 µM, 64 h).
For HepG2; resazurin; 33.32 µM, 48 h: cytotoxicity read 87% and 89%.
For PMA-differentiated THP-1 macrophages; 0.02 µM, 64 h: cytotoxicity read -1% and 3%.
The cytotoxicity was 12% and 8% (PMA-differentiated THP-1 macrophages; 4 µM, 64 h).
The cytotoxicity was -5% and -3% (RAW264.7; resazurin; 0.0166 µM).
The cytotoxicity was -3% (RAW264.7; resazurin; 0.066 µM).
HepG2; resazurin; 0.166 µM, 48 h — cytotoxicity: 4% and 6%.
The cytotoxicity was 7% and 11% (HEK293; resazurin; 1.66 µM, 10% serum).
The cytotoxicity was 100% (RAW264.7; resazurin; 66.66 µM, 64 h).

Series 2
SMILES: O=C(Nc1cccnn1)N1CC(C/C=C/c2cncc(Oc3ccc(C(F)(F)F)cn3)n2)C1
Read-out: cell-free assay
Technique: competition with immobilised ligand
Concentration: 1 µM
The remaining binding was 100% (Protein kinase C delta type (PRKCD, Homo sapiens, UniProt Q05655)).
The remaining binding was 94% (Mitogen-activated protein kinase kinase kinase kinase 5 (MAP4K5, Homo sapiens, UniProt Q9Y4K4)).
The remaining binding was 100% (Serine/threonine-protein kinase Nek10 (NEK10, Homo sapiens, UniProt Q6ZWH5)).
Receptor-interacting serine/threonine-protein kinase 1 (RIPK1, Homo sapiens, UniProt Q13546) — remaining binding: 100%.
The remaining binding was 91% (Dual specificity mitogen-activated protein kinase kinase 7 (MAP2K7, Homo sapiens, UniProt O14733)).
The remaining binding was 100% (Fibroblast growth factor receptor 2 (FGFR2, Homo sapiens, UniProt P21802)).
Non-receptor tyrosine-protein kinase TNK1 (TNK1, Homo sapiens, UniProt Q13470) — remaining binding: 100%.
It gave 100% for remaining binding (Dual specificity protein kinase CLK1 (CLK1, Homo sapiens, UniProt P49759)).
The remaining binding was 95% (Serine/threonine-protein kinase PAK 2 (PAK2, Homo sapiens, UniProt Q13177)).
The remaining binding was 100% (Serine/threonine-protein kinase DCLK3 (DCLK3, Homo sapiens, UniProt Q9C098)).
Homeodomain-interacting protein kinase 1 (HIPK1, Homo sapiens, UniProt Q86Z02) — remaining binding: 88%.
It gave 77% for remaining binding (BDNF/NT-3 growth factors receptor (NTRK2, Homo sapiens, UniProt Q16620)).
For Calcium/calmodulin-dependent protein kinase type II subunit alpha (CAMK2A, Homo sapiens, UniProt Q9UQM7): remaining binding read 100%.
It gave 100% for remaining binding (Citron Rho-interacting kinase (CIT, Homo sapiens, UniProt O14578)).
Uncharacterized serine/threonine-protein kinase SBK3 (SBK3, Homo sapiens, UniProt P0C264) — remaining binding: 100%.
The remaining binding was 67% (Tyrosine-protein kinase ABL1, phosphorylated (ABL1, Homo sapiens, UniProt P00519, M351T)).
It gave 82% for remaining binding (Rho-associated protein kinase 1 (ROCK1, Homo sapiens, UniProt Q13464)).
SRSF protein kinase 2 (SRPK2, Homo sapiens, UniProt P78362) — remaining binding: 100%.
Ephrin type-A receptor 5 (EPHA5, Homo sapiens, UniProt P54756) — remaining binding: 85%.
The remaining binding was 89% (Homeodomain-interacting protein kinase 2 (HIPK2, Homo sapiens, UniProt Q9H2X6)).

Series 3
Target: Tyrosine-protein kinase ZAP-70 (ZAP70, Homo sapiens, UniProt P43403)
Read-out: enzyme activity
Action: inhibitor
Concentration: 0.5 µM
Reference: control
Construct (P43403 1-619): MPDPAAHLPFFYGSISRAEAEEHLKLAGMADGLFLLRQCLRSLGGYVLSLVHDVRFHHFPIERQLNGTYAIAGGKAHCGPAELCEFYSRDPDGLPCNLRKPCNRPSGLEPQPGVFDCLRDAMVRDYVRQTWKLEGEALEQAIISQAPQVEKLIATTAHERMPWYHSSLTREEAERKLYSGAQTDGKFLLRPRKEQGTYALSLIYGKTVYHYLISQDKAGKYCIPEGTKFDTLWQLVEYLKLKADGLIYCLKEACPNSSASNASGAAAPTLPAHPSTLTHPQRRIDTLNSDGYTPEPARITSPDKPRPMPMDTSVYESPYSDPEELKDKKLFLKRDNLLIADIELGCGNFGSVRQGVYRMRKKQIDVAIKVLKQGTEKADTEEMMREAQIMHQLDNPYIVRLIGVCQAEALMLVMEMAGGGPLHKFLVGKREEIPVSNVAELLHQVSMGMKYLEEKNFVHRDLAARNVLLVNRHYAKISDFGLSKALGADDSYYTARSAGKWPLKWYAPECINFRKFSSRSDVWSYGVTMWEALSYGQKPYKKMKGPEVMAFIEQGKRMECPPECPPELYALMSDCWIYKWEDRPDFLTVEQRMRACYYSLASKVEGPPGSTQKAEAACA
The remaining activity of `O=C(c1ccccc1)c1ccc(N2CCOCC2)cc1O` is reported as 95.9%.
`COc1cc2c(Nc3ccc(Br)cc3F)ncnc2cc1OCC1CCN(C)CC1` gave a remaining activity of 96.8%.
The remaining activity of `N#CC(c1ccnc(NCCc2cccnc2)n1)c1nc2ccccc2s1` (stereo not shown) is reported as 94.5%.
With `C[C@@H](N)[C@H]1CC[C@H](C(=O)Nc2ccncc2)CC1` the remaining activity was 89%.
`CNc1cc2c(Nc3cccc(Br)c3)ncnc2cn1` gave a remaining activity of 99.1%.
`Nc1nc(Nc2ccc(S(N)(=O)=O)cc2)nn1C(=S)Nc1c(F)cccc1F` has a remaining activity of 86.9%.
With `O=Nc1c(-c2c(O)[nH]c3ccccc23)[nH]c2ccccc12` the remaining activity was 95.6%.
`CC(C)n1cnc2c(Nc3cccc(Cl)c3)nc(NCCO)nc21` gave a remaining activity of 98.3%.
The remaining activity of `CCN(CC)CCCCN1c2ccccc2Oc2ccc(Cl)cc21` is reported as 91.1%.
`O=c1c(-c2ccc(F)cc2)c(-c2ccncc2)[nH]n1-c1ccc(Cl)cc1` has a remaining activity of 108%.

Series 4
Host: mouse
Medium: microsomes or S9
Concentration: 2 µM
Time: 0.5 h
`Cc1cc(C)c(C(=O)Nc2ccc3c(c2)n(C)c(=O)n3C)c(=O)[nH]1` gave a remaining compound of 76.3%.
`c1ccc(/C(Cc2ccn[nH]2)=N\N=C(/Cc2ccn[nH]2)c2ccccc2)cc1` has a remaining compound of 5.1%.
For `COc1ccc(/N=C2\C(N3CCCCC3)C3(CCCCC3)C(=O)N2c2ccc(Cl)cc2)cc1` (stereo not shown), the remaining compound was 45.3%.
`COC(=O)c1ccccc1C1CCN(C(=O)OC(C)(C)C)CC1` gave a remaining compound of 4.21%.
`COc1cc(OC)c2c(c1)C(=O)NN1C(=O)OC(C)(C)C21C` (stereo not shown) gave a remaining compound of 54.2%.
With `[O-][S+]1CCN(c2ncnc3sccc23)CC1` the remaining compound was over 100%.
`CC(C)c1nc2c(c(OC3CCCN(S(=O)(=O)c4cccs4)C3)n1)CCOCC2` (stereo not shown) gave a remaining compound of 0.0309%.
`CCOC(=O)c1cc(C(=O)OCC)n(CCCC#N)c1` gave a remaining compound of 2.01%.
`COC(=O)CCC(=O)Nc1sc(C)c(C)c1C(N)=O` gave a remaining compound of 55.5%.
With `N#Cc1cnc(N[C@H]2CC[C@H](Nc3cnc(C#N)cn3)CC2)cn1` the remaining compound was over 99%.

For quick reference, copied from above (series 4):
`c1ccc(/C(Cc2ccn[nH]2)=N\N=C(/Cc2ccn[nH]2)c2ccccc2)cc1` has a remaining compound of 5.1%.
For `COc1ccc(/N=C2\C(N3CCCCC3)C3(CCCCC3)C(=O)N2c2ccc(Cl)cc2)cc1` (stereo not shown), the remaining compound was 45.3%.
`COC(=O)c1ccccc1C1CCN(C(=O)OC(C)(C)C)CC1` gave a remaining compound of 4.21%.
`COc1cc(OC)c2c(c1)C(=O)NN1C(=O)OC(C)(C)C21C` (stereo not shown) gave a remaining compound of 54.2%.
With `[O-][S+]1CCN(c2ncnc3sccc23)CC1` the remaining compound was over 100%.
`CC(C)c1nc2c(c(OC3CCCN(S(=O)(=O)c4cccs4)C3)n1)CCOCC2` (stereo not shown) gave a remaining compound of 0.0309%.
